# Results collected from several papers.
# “And” joins repeats or separate records; there may be more than shown. Numbers after ± are the reported error.
Structure (SMILES),assay,system,conditions,measurement,result
CC[C@H](C)[C@H](NC(=O)[C@@H](NC(=O)[C@H](Cc1ccccc1)NC(=O)CNC(=O)[C@H](CCC(N)=O)NC(=O)[C@H](CCCCN)NC(=O)[C@H](C)N)C(C)C)C(=O)N[C@@H](Cc1ccc(O)cc1)C(=O)N[C@@H](CCCNC(=N)N)C(=O)N[C@H](C(=O)N[C@@H](CCCNC(=N)N)C(=O)N[C@H](C(=O)N[C@@H](CCCNC(=N)N)C(=O)N[C@@H](CCCNC(=N)N)C(=O)NCC(=O)N[C@@H](CC(N)=O)C(=O)N[C@@H](CCCNC(=N)N)C(=O)N[C@@H](CCCCN)C(N)=O)C(C)C)C(C)C,reversed-phase UPLC,"C18 column, TFA",,elution acetonitrile content,37.4%
CCCC[C@@H]1NC(=O)[C@H](Cc2ccc(O)cc2)NC(=O)[C@@H]2CCCN2C(=O)[C@H](CC(=O)O)NC(=O)[C@H](C)NC(=O)[C@H](Cc2ccccc2)NC(=O)[C@@H]2CSCCC(=O)N3CN(CN(C3)C(=O)CCSC[C@@H](C(N)=O)NC1=O)C(=O)CCSCCC(=O)N[C@@H](CC(C)(C)C)C(=O)N1CCC[C@H]1C(=O)N[C@@H](CCC(=O)O)C(=O)N[C@H](CCCCNC(=O)CCc1cn(CCOCCOCCOCCN(CCOCCOCCOCCC(=O)N[C@H]3CSCCC(=O)N4CN5CN(C4)C(=O)CCSC[C@H](NC(=O)[C@@H](CC(=O)O)NC(=O)[C@H](Cc4cccc6ccccc46)NC(=O)[C@@H]4CCCN4C3=O)C(=O)N[C@@H](CCSC)C(=O)N[C@@H](CCCCNC(=N)N)C(=O)N[C@@H](CC(=O)O)C(=O)N[C@@H](Cc3c[nH]c4ccccc34)C(=O)N[C@@H](CO)C(=O)N[C@@H]([C@@H](C)O)C(=O)N3CCC[C@H]3C(=O)N3C[C@H](O)C[C@H]3C(=O)N[C@@H](Cc3c[nH]c4ccccc34)C(=O)N[C@H](C(N)=O)CSCCC5=O)CCOCCOCCOCCn3cc(CCC(=O)NCCCC[C@H]4NC(=O)[C@H](CCC(=O)O)NC(=O)[C@@H]5CCCN5C(=O)[C@H](CC(C)(C)C)NC(=O)CCSCCC(=O)N5CN6CN(C5)C(=O)CCSC[C@H](NC(=O)[C@H](Cc5ccc(O)cc5)NC(=O)[C@@H]5CCCN5C4=O)C(=O)N[C@@H](Cc4ccccc4)C(=O)N[C@@H](C)C(=O)N[C@@H](CC(=O)O)C(=O)N4CCC[C@H]4C(=O)N[C@@H](Cc4ccc(O)cc4)C(=O)N[C@@H](CCCC)C(=O)N[C@H](C(N)=O)CSCCC6=O)nn3)nn1)C(=O)N1CCC[C@H]1C(=O)N[C@@H](Cc1ccc(O)cc1)C(=O)N2,,Sprague-Dawley rat,,unbound Vdss,54 L/kg
CC(C)C[C@H](NC(=O)[C@H](CCCCN)NC(=O)OCC1c2ccccc2-c2ccccc21)C(=O)N[C@H](C(=O)N[C@@H](Cc1ccccc1)C(=O)N[C@@H](Cc1ccccc1)C(=O)N[C@@H](CCCCN)C(=O)NCC(=O)N[C@@H](Cc1ccccc1)C(=O)N[C@@H](C)C(=O)N[C@@H](Cc1c[nH]c2ccccc12)C(=O)N[C@@H](CC(N)=O)C(=O)N[C@H](C(=O)N[C@H]1CSSC[C@@H](C(=O)N[C@@H](Cc2c[nH]cn2)C(=O)N[C@@H](CCCNC(=N)N)C(=O)N[C@@H](CCCNC(=N)N)C(=O)N[C@@H](C)C(=O)N[C@@H](CC(N)=O)C(N)=O)NC(=O)[C@H](C(C)C)NC(=O)[C@H](CCCNC(=N)N)NC(=O)[C@H](C(C)C)NC(=O)CNC(=O)[C@H](CC(N)=O)NC(=O)[C@H](CCCNC(=N)N)NC(=O)[C@H](Cc2ccc(O)cc2)NC(=O)[C@H](C(C)C)NC1=O)C(C)C)C(C)C,,"ICR mouse, blood","intramammary, 5 mg/kg, day 5, 3 d dosing",AST,25.4 ± 0.63 IU/L
CO[C@H]1C[C@@H]2CC[C@@H](C)[C@@](O)(O2)C(=O)C(=O)N2CCCC[C@H]2C(=O)O[C@H]([C@H](C)C[C@@H]2CC[C@@H](OC(=O)NCCOCCOCCOCCOCCOCCOCCOCCOCCC(=O)N3CCc4cc(Cn5nc(-c6ccc7oc(N)nc7c6)c6c(N)ncnc65)ccc4C3)[C@H](OC)C2)C[C@@H](O)[C@H](C)/C=C(\C)[C@@H](O)[C@@H](OC)C(=O)[C@H](C)C[C@H](C)/C=C/C=C/C=C/1C,"phase 1 dose escalation, item: rash",advanced solid tumour patients,"intravenous, 8 mg weekly, any grade",TRAE incidence,18.8%
COc1ccc2nc3cc(Cl)ccc3c(Nc3cc(CN4CCCC4)c(O)c(CN4CCCC4)c3)c2n1,,"mouse, blood","intraperitoneal, 57 mg/kg",AST activity,57.4 U/L
CCN1[C@@H](C(=O)NC23CCC(C(=O)O)(CC2)CC3)[C@H](c2cccc(Cl)c2F)[C@]2(C(=O)Nc3cc(Cl)ccc32)C12CCCCC2,,patients with advanced solid tumours,"oral, dose not given, all doses",Hypercholesterolemia incidence,4.8%
[11CH3]Oc1ccc(NC(=O)c2cc([N+](=O)[O-])ccc2Cl)cc1,,heparinized rat blood,5 min,intact radiotracer,52%
CC(=O)c1c(C)c2cnc(Nc3ccc(C4CCN(CCS(C)(=O)=O)CC4)cn3)nc2n(C2CCCC2)c1=O,,"human, plasma","oral, 75 mg twice daily, day 1, single dose, added: letrozole",Vd,1050 L
O=C(O)CCCOc1ccc(F)cc1-c1cc(-c2ccccc2C(F)(F)F)n(-c2ccccc2)n1,item: ALT,"Crl:CD(SD) rats, female, serum","iv, 25 µg/kg, 1 day",serum enzyme activity,25.2 ± 3.3 U/L
CN1CCN(S(=O)(=O)c2cc([N+](=O)[O-])ccc2N(CCOS(C)(=O)=O)CCOS(C)(=O)=O)CC1,,"NOD/SCID mouse, naive, blood","intraperitoneal, 25 mg/kg, week 1",hemoglobin,150 g/L and 142 g/L and 202 g/L and 118 g/L
CN1CC[C@@H](c2c(O)cc(O)c3c(=O)cc(-c4ccc(C(F)(F)F)cc4Cl)oc23)[C@@H]1CO,item: Diarrhea,B-cell malignancies,"oral, 200 mg, intermittent dosing",patients with adverse event,0%
O=C(c1ccc(F)c(F)c1Nc1ccc(I)cc1F)N1CC(O)([C@@H]2CCCCN2)C1,,human patients,"oral, dose not given, dose escalation, tablet",AE causing treatment withdrawal,6%
CCc1ccc(CC/C=C/c2ccc3c(c2)C(=O)CC3)cc1,,"Sprague-Dawley rat, male, blood","oral, 30 mg/kg/day, 14 days",large unstained cells,1%
CC(C)[C@@H]1CC[C@@H](C)C[C@@H]1O,acute oral toxicity OECD,"Swiss albino mice, serum","oral, 1000 mg/kg",alkaline phosphatase,69.5 ± 7.7 U/L
O=S(=O)(Nc1ccccc1)c1ccc(NC(=S)Nc2ccccc2)cc1,item: BA%,"male mouse, blood","oral, 20 mg/kg daily, 14 days",blood cell fraction,0.05%
NC(=O)[C@H]1CCN(c2ncnc(N)c2F)C[C@@H]1N1CCC[C@@H](Nc2cc(Cl)cc(C(F)(F)F)c2)C1=O,,B-cell malignancy patients,"oral, 20.5 mg twice daily, dose",grade ≥3 hypocalcaemia,0%
O=C(Nc1cccnn1)N1CCC(=Cc2cccc(Oc3ccc(C(F)(F)F)cn3)c2)CC1,,culture medium without cells,"100 nM, 1 h",concentration,0.0386 ± 0.0006 µM
Clc1ccc(Cl)c(-c2cc(Cl)ccc2Cl)c1,,"Sprague Dawley rat, thymus","intraperitoneal, 10 mg/kg",organ weight,0.48 g
NCCCC[C@@H]1NC(=O)[C@@H](Cc2c[nH]c3ccccc23)NC(=O)[C@H](c2ccccc2)NC(=O)[C@@H]2C[C@@H](OC(=O)NCCN)CN2C(=O)[C@H](Cc2ccccc2)NC(=O)[C@H](Cc2ccc(OCc3ccccc3)cc2)NC1=O,,healthy volunteers,"subcutaneous, 600 µg twice daily, day 5, 12.00 h",QTcI change from baseline,0.9 ms
Cc1c(COC(=O)[C@@H]2[C@H](/C=C(\Cl)C(F)(F)F)C2(C)C)cccc1-c1ccccc1 (racemic),item: CYP2C9,"human, age 5 years, recombinant human CYP2C9",0.1 µM,enzyme contribution to clearance,19.4%
Cn1c(-c2ccc(C(N)=O)cc2F)nnc1C(C)(C)Oc1c(F)cc(Cl)cc1F,,human,"oral, 30 mg, single ascending dose",vessel puncture site pain,33.3%
COc1ncccc1-c1cnn2ccc(N3CCN(C(=O)OC(C)C)CC3)nc12,,"mouse nerve ligation model, brain","oral, 10 mg/kg, 120 min after last dose, repeat dosing day 2",drug concentration,7 µM
C[C@H]1CN(C(=O)CC#N)[C@]12CCN(c1ncnc3[nH]ccc13)C2,,"rat, male","oral, 3 mg/kg, 6 months, repeated dose toxicity",exposure multiple over human,161 /580
C[C@@H](NC(=O)N1C(=O)[C@H](Cc2ccnc(N)c2)[C@H]1C(=O)O)C1CCCCC1,,healthy adult Chinese volunteers,"continuous intravenous infusion, 2.25 mg/kg/h, 5-day infusion, CTCAE 5.0 grading",incidence of AEs leading to death,0%
O=C1Nc2cc3[nH]nc(-c4ccncc4)c3cc2CN1Cc1ccccc1,CTCAE v4.03,advanced solid tumour patients,"intravenous, 7.2 mg/kg, schedules 1/2",patients with ≥1 TEAE,100%
CC[C@H](C)[C@H](NC(=O)[C@H](Cc1ccccc1)NC(=O)[C@H](CCC(=O)O)NC(=O)[C@H](CCCNC(=N)N)NC(=O)[C@H](C)NC(=O)[C@H](C)NC(=O)[C@H](CCC(N)=O)NC(=O)[C@H](CCC(=O)O)NC(=O)[C@H](CCC(=O)O)NC(=O)[C@H](CC(C)C)NC(=O)[C@H](Cc1ccc(O)cc1)NC(=O)[C@H](CO)NC(=O)[C@H](CO)NC(=O)[C@@H](NC(=O)[C@H](CC(=O)O)NC(=O)[C@H](CO)NC(=O)[C@@H](NC(=O)[C@H](Cc1ccccc1)NC(=O)[C@@H](NC(=O)CNC(=O)[C@H](CCC(=O)O)NC(=O)[C@H](C)NC(=O)CCc1cnc[nH]1)[C@@H](C)O)[C@@H](C)O)C(C)C)C(=O)N[C@@H](C)C(=O)N[C@@H](Cc1c[nH]c2ccccc12)C(=O)N[C@@H](CC(C)C)C(=O)N[C@H](C(=O)N[C@@H](CCCNC(=N)N)C(=O)NCC(=O)N[C@@H](CCCNC(=N)N)C(=O)N[C@@H](CCCCNC(=O)COCCOCCNC(=O)COCCOCCNC(=O)CC[C@H](NC(=O)CCCCCCCCCCCCCCCCC(=O)O)C(=O)O)C(=O)NCC(=O)NCC(=O)N[C@@H](CO)C(=O)N[C@@H](CCCCNC(=O)[C@H](CCCCNC(=O)[C@H](CCCCNc1c(NCCCCCN(O)C(=O)CCC(=O)NCCCCCN(O)C(=O)CCC(=O)NCCCCCN(O)C(C)=O)c(=O)c1=O)Nc1c(NCCCCCN(O)C(=O)CCC(=O)NCCCCCN(O)C(=O)CCC(=O)NCCCCCN(O)C(C)=O)c(=O)c1=O)NC(=O)[C@H](CCCCNc1c(NCCCCCN(O)C(=O)CCC(=O)NCCCCCN(O)C(=O)CCC(=O)NCCCCCN(O)C(C)=O)c(=O)c1=O)Nc1c(NCCCCCN(O)C(=O)CCC(=O)NCCCCCN(O)C(=O)CCC(=O)NCCCCCN(O)C(C)=O)c(=O)c1=O)C(=O)O)C(C)C [zirconium-89 labelled],ex vivo gamma counting,"male Sprague-Dawley rats, stomach","intravenous, 1 nmol, 24 h",tissue uptake,0.227 %ID/g
COc1cc2c(Oc3ccc4[nH]c(C)cc4c3F)ccnc2cc1OCC1(N)CC1,,paediatric recurrent refractory sarcoma,10 mg,grade 3 abdominal distension,0%
Clc1ccc(-c2ccccc2)cc1,,"Sprague-Dawley rats, female, serum","inhalation, 23 µg/rat, 1 h after exposure",alanine aminotransferase,94 ± 44 U/L
O=C(O)Cc1ccccc1,,human CSF,"concentration not given, mean",CSF concentration,not detected
C[C@]1(CO)Cc2ncn(-c3ccc(C#N)c(Cl)c3)c2C(=O)O1,item: involuntary muscle contractions,human,20 mg single dose,subjects with drug-related TEAE,14.3%
C=CCNc1c(O)cc2c(O)c1C[C@@H](C)C[C@H](OC)[C@H](O)[C@@H](C)/C=C(\C)[C@H](OC(N)=O)[C@@H](OC)/C=C\C=C(/C)C(=O)N2,,unresectable or metastatic sarcoma,"intravenous, 150 mg/m^2, grade 3-4 lab change",patients with lipase increase,0%

# Excerpt of the above:
Structure (SMILES),assay,system,conditions,measurement,result
Cc1c(COC(=O)[C@@H]2[C@H](/C=C(\Cl)C(F)(F)F)C2(C)C)cccc1-c1ccccc1 (racemic),item: CYP2C9,"human, age 5 years, recombinant human CYP2C9",0.1 µM,enzyme contribution to clearance,19.4%
Cn1c(-c2ccc(C(N)=O)cc2F)nnc1C(C)(C)Oc1c(F)cc(Cl)cc1F,,human,"oral, 30 mg, single ascending dose",vessel puncture site pain,33.3%
COc1ncccc1-c1cnn2ccc(N3CCN(C(=O)OC(C)C)CC3)nc12,,"mouse nerve ligation model, brain","oral, 10 mg/kg, 120 min after last dose, repeat dosing day 2",drug concentration,7 µM
C[C@H]1CN(C(=O)CC#N)[C@]12CCN(c1ncnc3[nH]ccc13)C2,,"rat, male","oral, 3 mg/kg, 6 months, repeated dose toxicity",exposure multiple over human,161 /580
